Published values pooled from the literature.
Sequence of UniProt Q9BV86 (whole entry, looked up): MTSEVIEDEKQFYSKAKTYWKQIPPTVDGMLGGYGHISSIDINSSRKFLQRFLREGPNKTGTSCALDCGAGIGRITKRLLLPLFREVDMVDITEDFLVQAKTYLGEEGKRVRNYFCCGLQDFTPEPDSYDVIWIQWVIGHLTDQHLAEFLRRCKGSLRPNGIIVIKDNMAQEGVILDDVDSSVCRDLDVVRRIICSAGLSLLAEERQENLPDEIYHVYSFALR
Sequence of UniProt P28063 (whole entry, looked up): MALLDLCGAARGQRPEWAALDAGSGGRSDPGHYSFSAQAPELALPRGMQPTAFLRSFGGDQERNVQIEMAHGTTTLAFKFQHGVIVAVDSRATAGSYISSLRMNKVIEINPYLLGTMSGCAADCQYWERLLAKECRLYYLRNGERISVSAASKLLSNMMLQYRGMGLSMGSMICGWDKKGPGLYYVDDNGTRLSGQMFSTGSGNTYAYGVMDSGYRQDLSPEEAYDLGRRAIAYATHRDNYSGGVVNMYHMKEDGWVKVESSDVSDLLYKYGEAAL
Sequence of UniProt P16234 (whole entry, looked up): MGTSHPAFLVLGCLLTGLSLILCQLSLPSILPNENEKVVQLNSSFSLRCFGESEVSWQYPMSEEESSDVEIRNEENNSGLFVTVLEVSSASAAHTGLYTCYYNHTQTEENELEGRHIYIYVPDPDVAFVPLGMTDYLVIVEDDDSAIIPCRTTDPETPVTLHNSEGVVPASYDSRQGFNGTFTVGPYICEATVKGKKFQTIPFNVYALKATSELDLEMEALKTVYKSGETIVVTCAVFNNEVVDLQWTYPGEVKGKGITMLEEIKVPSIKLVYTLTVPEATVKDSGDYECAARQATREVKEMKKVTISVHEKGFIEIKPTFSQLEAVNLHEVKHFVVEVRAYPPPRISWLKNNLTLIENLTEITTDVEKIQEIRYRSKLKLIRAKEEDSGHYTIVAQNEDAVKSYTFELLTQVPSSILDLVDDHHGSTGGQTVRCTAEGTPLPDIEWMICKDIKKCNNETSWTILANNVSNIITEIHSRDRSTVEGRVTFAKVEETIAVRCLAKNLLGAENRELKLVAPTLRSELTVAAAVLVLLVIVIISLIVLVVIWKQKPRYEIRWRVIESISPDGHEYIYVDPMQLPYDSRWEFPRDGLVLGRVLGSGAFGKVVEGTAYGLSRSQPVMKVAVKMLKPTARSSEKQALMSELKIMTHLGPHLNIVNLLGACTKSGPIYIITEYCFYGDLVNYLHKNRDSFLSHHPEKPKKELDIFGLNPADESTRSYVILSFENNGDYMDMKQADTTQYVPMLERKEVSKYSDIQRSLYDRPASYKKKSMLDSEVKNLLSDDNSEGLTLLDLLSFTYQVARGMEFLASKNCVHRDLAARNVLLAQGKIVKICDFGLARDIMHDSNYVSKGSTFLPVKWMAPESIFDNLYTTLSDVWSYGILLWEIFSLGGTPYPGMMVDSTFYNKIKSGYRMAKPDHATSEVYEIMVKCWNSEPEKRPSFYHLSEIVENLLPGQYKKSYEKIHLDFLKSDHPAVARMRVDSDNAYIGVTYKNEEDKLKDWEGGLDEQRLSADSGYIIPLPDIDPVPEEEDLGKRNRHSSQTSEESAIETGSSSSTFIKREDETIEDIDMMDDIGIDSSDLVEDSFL
Sequence of UniProt Q99436 (whole entry, looked up): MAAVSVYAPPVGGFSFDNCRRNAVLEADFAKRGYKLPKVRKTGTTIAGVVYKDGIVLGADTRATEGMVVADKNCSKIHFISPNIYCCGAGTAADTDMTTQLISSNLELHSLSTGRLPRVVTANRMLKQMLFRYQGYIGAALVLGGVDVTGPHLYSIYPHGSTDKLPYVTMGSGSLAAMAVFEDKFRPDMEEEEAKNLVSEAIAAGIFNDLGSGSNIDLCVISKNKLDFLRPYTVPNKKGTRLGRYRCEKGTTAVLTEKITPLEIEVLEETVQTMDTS
Sequence of UniProt Q08499 (whole entry, looked up): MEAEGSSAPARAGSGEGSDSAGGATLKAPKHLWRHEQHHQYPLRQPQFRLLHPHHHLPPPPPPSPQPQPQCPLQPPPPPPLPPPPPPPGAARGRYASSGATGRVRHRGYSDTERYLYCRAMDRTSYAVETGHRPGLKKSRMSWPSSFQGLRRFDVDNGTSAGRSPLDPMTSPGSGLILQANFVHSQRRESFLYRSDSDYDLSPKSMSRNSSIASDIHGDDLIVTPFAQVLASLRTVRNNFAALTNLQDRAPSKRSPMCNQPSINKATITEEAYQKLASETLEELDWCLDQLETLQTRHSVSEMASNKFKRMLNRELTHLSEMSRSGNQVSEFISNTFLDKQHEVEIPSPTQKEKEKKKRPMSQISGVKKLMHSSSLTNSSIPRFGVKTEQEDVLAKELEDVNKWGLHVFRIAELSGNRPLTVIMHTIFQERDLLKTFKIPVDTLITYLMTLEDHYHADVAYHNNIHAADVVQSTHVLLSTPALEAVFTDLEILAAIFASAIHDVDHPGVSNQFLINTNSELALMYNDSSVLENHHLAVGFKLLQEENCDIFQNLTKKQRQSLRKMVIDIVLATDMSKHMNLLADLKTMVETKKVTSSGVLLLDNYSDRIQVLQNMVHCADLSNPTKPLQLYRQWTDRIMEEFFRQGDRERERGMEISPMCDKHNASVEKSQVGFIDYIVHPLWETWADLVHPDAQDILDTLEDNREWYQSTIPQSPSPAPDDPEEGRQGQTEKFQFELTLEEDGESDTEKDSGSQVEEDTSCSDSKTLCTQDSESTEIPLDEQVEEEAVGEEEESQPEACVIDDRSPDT
Sequence of UniProt Q04760 (whole entry, looked up): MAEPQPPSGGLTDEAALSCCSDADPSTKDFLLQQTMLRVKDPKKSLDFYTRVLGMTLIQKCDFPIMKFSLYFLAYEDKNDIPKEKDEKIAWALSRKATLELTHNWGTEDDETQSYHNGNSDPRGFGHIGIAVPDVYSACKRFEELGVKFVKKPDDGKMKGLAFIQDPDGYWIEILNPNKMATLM
Sequence of UniProt P01024 (whole entry, looked up): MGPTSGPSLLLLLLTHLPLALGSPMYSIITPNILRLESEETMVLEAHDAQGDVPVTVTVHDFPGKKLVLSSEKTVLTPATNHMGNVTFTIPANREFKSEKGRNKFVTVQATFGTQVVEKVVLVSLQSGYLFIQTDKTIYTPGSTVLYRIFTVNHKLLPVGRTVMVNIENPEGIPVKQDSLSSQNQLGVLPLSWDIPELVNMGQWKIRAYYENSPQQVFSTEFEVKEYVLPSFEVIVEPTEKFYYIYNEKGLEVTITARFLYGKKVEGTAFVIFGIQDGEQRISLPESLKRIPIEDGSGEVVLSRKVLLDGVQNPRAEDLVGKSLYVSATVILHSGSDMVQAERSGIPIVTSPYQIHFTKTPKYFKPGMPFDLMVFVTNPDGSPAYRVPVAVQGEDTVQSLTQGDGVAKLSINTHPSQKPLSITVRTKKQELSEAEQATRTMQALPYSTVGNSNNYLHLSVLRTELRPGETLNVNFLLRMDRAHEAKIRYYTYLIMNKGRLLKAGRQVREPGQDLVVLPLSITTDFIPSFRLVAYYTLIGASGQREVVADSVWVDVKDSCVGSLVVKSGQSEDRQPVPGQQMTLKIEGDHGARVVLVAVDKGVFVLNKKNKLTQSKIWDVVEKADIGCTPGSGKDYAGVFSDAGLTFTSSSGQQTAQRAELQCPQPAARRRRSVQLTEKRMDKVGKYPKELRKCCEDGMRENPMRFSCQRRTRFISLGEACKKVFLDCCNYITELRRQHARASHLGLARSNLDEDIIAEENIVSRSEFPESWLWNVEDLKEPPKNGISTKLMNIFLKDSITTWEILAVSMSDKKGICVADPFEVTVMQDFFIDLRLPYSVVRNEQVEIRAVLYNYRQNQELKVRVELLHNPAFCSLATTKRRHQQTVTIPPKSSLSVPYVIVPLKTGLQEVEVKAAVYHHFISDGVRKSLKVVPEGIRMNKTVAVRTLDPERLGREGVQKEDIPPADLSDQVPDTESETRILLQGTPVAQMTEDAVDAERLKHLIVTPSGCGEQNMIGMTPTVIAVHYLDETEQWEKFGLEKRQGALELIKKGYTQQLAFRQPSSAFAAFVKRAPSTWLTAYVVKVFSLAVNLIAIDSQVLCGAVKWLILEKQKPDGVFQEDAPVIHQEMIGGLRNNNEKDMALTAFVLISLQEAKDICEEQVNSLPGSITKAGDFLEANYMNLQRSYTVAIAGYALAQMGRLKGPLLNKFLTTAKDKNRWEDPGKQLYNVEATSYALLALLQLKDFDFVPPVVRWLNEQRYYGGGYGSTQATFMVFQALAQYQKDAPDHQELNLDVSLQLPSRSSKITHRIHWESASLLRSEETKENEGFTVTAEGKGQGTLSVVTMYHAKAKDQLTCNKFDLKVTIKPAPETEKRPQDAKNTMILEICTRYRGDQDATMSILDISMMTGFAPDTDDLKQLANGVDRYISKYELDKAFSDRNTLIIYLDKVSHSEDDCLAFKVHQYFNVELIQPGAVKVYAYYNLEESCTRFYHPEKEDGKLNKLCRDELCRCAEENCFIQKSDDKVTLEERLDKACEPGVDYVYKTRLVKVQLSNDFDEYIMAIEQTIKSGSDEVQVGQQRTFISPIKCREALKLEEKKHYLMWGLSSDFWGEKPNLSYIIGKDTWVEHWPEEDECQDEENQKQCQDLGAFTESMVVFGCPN
Sequence of UniProt Q02750 (whole entry, looked up): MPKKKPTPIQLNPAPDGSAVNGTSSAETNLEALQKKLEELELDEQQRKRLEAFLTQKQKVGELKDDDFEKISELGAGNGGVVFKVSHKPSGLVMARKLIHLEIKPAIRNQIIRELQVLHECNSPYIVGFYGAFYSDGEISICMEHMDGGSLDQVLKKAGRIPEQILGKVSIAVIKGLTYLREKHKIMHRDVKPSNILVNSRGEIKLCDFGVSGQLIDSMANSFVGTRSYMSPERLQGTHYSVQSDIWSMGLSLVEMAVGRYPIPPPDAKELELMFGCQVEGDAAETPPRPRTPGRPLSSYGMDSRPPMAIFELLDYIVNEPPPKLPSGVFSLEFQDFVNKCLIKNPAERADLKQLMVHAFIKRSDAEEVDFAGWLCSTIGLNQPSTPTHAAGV

Compound | target | assay | test system | conditions | IC50 [µM]
Cc1ccc(CNC(=O)[C@H](CCc2ccccc2)NC(=O)[C@H](CC(=O)NCC(C)(C)C)NC(=O)CCc2cccc(F)c2)cc1 | Proteasome subunit beta type-3/PSMB7 (Homo sapiens, UniProt P49720+Q99436) | inhibitor | – | – | > 100
CC(C)NC1CCN(S(=O)(=O)Nc2ccc(F)c(F)c2Nc2ccc(I)cc2Cl)CC1 | MAP2K1 (Homo sapiens, UniProt Q02750) | enzyme activity, inhibitor | – | – | 0.062
O=C(O[C@@H]1Cc2c(O)cc(O)cc2O[C@@H]1c1ccc(O)c(O)c1)c1ccc(O)cc1 | maltase, rat | enzyme activity, inhibitor | rat intestinal brush border vesicles | – | 61.8
C=CC(=O)N1CCc2ccc(-n3c(=O)ccc4cnc5ccc(-c6cnn(C)c6)cc5c43)cc21 | FLT3 (Homo sapiens, UniProt P36888) | enzyme activity, inhibitor | – | – | 3.99
CC(=O)N[C@@H](Cc1c[nH]c2ccccc12)C(=O)N[C@H]1CSSC[C@@H](C(=O)N[C@H](C(N)=O)[C@@H](C)O)NC(=O)[C@H](CCCNC(=N)N)NC(=O)[C@H](Cc2c[nH]cn2)NC(=O)[C@H](C)NC(=O)CNC(=O)[C@H](Cc2c[nH]c3ccccc23)NC(=O)[C@H](CC(=O)O)NC(=O)[C@H](CCC(N)=O)NC(=O)[C@H](Cc2c[nH]c3ccccc23)NC(=O)[C@H](C(C)C)NC1=O | Complement C3 (Homo sapiens, UniProt P01024) | C3b formation, ELISA | normal human serum | with: LPS-coated plate | 0.29
Cc1cc(N2CC[C@@](C#N)(C3(C)CC3)C2=O)cc(C(=O)NCc2cc(F)cc(-c3cnn(C)c3)c2)n1 | panel of 303 human kinases | enzyme activity | – | all kinases | > 1
COc1cc2oc(-c3ccc(O)cc3O)cc2c(OC)c1CC=C(C)C | Prothrombin (F2, Homo sapiens, UniProt P00734) | enzyme activity, inhibitor, fluorescence | – | with preincubation | > 100
NCc1ccc(Cn2cc(Cc3cc(N)nc4[nH]nnc34)cn2)cc1 | Myeloperoxidase (MPO, Homo sapiens, UniProt P05164) | enzyme activity, inhibitor, fluorescence | – | – | 0.013
O=C(N[C@@H](Cc1coc2ccccc12)B(O)O)[C@@H]1C[C@H]2CC[C@@H]1O2 | Proteasome subunit beta type-1/Psmb8, LMP7 subunit (Mus musculus, UniProt O09061+P28063) | LMP7 enzyme activity, inhibitor | mouse P3X63Ag8.653 | 2 h, tested up to 30000 nM | > 30
COc1cc2nccc(Oc3ccc(NC(=O)NC4CC4)c(Cl)c3)c2cc1C(N)=O | PDGFRA (Homo sapiens, UniProt P16234) | enzyme activity, inhibitor | – | – | 0.095
CN(C(=O)c1ccn2ncc(-c3ccc(C(N)=O)cc3)c2c1)c1ccc(C#N)cn1 | PDE4D (Homo sapiens, UniProt Q08499) | cell-free assay | – | – | > 30
COc1ccc(CN2C[C@H](O)[C@H](O)[C@@H]2CO)cc1 | Golgi alpha-mannosidase IIb (Drosophila melanogaster, UniProt Q9VF33) | – | – | pH 6.0, 0.5 mM CoCl2, with: 2 mM pNP-Man | 140
N[C@@H](Cc1c[nH]c2ccc(OCc3ccc(-c4ccoc4)cc3)cc12)C(=O)O | SLC7A5 (Homo sapiens, UniProt Q01650) | transporter uptake, inhibitor, radiometric | – | – | 26
N=C(NCCCSCC1OC(n2cnc3c(N)ncnc32)C(O)C1O)NCCCC(N)C(N)=O (stereo not drawn) | N-terminal Xaa-Pro-Lys N-methyltransferase 1 (Homo sapiens, UniProt Q9BV86) | enzyme activity, inhibitor, fluorescence | – | – | > 100
O=C(O)c1cc(/N=N/c2ccccc2)c2ccccc2c1O | GLO1 (Homo sapiens, UniProt Q04760) | enzyme activity, inhibitor | – | – | 5.2

Some of these lines once more:
Compound | target | assay | test system | conditions | IC50 [µM]
N[C@@H](Cc1c[nH]c2ccc(OCc3ccc(-c4ccoc4)cc3)cc12)C(=O)O | SLC7A5 (Homo sapiens, UniProt Q01650) | transporter uptake, inhibitor, radiometric | – | – | 26
N=C(NCCCSCC1OC(n2cnc3c(N)ncnc32)C(O)C1O)NCCCC(N)C(N)=O (stereo not drawn) | N-terminal Xaa-Pro-Lys N-methyltransferase 1 (Homo sapiens, UniProt Q9BV86) | enzyme activity, inhibitor, fluorescence | – | – | > 100
